Experimental data gathered from unrelated publications.
Parts stem from different laboratories: compare values within a part only.

Study 1
Target: PABPC1L2, full length, GST fusion (mouse, UniProt A0ABA7IW68)
Method: RNAcompete
Form: RNA
Matrix: in vitro
Tested at: 20 nM
Notes: 7-mer, probes averaged, single round
Relative to: mean of 7-mers
Reading: higher = stronger binding
Construct (chain): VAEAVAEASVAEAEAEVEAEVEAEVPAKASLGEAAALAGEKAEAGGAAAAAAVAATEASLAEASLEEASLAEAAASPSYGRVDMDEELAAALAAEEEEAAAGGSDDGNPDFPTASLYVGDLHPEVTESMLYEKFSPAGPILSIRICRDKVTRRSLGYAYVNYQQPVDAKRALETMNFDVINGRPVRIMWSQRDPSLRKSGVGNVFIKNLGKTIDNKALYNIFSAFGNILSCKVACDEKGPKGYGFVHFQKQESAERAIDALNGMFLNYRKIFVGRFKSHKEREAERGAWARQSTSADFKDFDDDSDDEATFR
Oligonucleotide	7-mer Z-score
UCUUGCC	-0.322
UGCUCCG	-0.32
UACAUAU	-0.0772
CGCGGGA	0.158
UGCAUAC	-0.267
UUAACGA	-0.0228
CCCUCGU	-0.467
UUGCAAA	0.331

Study 2
Target: Sal-like protein 4, full length isoform B (SALL4, Homo sapiens, UniProt Q9UJQ4-2, residues 1-616)
Method: universal PBM
Form: double-stranded DNA, one strand shown
Matrix: in vitro
Tested at: not given
Notes: 8-mer, flanks averaged, mean of replicates
Reading: higher = stronger binding
Oligonucleotide	E-score
ACCCCGGC	-0.293
CTCGAACC	-0.269
GTATCGAC	0.0638
CCGGACGG	-0.291
CGGCAGTC	-0.202
AAAGCGTA	0.054
TCCTACCA	-0.219
ATAAAGTG	0.259

Study 3
Target: TAR DNA-binding protein 43, full length, His tag (TARDBP, Homo sapiens, UniProt Q13148, residues 1-414)
Method: RNA Bind-n-Seq
Form: RNA
Matrix: in vitro
Tested at: 20 nM
Notes: 6-mer, flanks averaged, single round
With: 150 mM KCl
Relative to: input library
Reading: higher = stronger binding
Oligonucleotide	6-mer enrichment (R)
ACACCC	0.755
GACGCU	0.819
UAAGCU	0.599
UAUUAA	0.618
GGUGAU	1.37
CGAGAU	0.774
AGCGAU	0.757
GAACCU	0.676

Further values, each from its own experiment
Molecule	target	assay	test system	setting	measurement	value
RYEFTAPFI	HLA class I histocompatibility antigen, A alpha chain, allele A*80:01 (Homo sapiens, UniProt P04439)	peptide-MHC binding	peptide	concentration not given	binding	inactive

A few entries again (study 3):
Oligonucleotide	6-mer enrichment (R)
UAAGCU	0.599
CGAGAU	0.774
